{"data": "Measurements gathered from unrelated publications", "note": "Compare with care: the assays were run in different laboratories. Numbers after ± are the reported error.", "sequence of UniProt Q05655 (whole entry, looked up)": "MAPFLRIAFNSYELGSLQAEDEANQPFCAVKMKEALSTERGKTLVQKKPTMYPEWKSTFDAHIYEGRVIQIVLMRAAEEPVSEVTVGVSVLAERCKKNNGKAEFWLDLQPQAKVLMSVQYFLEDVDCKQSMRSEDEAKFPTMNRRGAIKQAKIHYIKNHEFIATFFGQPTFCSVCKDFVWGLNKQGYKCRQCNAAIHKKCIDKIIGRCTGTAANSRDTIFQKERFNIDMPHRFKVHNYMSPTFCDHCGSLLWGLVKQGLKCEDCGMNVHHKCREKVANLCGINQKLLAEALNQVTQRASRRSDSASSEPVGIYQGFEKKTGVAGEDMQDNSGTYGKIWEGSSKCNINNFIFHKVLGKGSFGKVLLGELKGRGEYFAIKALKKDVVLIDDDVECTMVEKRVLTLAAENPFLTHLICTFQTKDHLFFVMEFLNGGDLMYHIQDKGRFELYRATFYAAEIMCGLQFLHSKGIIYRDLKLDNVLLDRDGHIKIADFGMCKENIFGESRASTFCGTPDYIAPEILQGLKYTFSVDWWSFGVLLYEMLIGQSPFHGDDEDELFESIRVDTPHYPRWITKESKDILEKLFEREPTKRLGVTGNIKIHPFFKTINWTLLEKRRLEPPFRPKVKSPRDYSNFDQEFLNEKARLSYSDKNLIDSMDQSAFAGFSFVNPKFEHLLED", "sequence of UniProt O94804 (whole entry, looked up)": "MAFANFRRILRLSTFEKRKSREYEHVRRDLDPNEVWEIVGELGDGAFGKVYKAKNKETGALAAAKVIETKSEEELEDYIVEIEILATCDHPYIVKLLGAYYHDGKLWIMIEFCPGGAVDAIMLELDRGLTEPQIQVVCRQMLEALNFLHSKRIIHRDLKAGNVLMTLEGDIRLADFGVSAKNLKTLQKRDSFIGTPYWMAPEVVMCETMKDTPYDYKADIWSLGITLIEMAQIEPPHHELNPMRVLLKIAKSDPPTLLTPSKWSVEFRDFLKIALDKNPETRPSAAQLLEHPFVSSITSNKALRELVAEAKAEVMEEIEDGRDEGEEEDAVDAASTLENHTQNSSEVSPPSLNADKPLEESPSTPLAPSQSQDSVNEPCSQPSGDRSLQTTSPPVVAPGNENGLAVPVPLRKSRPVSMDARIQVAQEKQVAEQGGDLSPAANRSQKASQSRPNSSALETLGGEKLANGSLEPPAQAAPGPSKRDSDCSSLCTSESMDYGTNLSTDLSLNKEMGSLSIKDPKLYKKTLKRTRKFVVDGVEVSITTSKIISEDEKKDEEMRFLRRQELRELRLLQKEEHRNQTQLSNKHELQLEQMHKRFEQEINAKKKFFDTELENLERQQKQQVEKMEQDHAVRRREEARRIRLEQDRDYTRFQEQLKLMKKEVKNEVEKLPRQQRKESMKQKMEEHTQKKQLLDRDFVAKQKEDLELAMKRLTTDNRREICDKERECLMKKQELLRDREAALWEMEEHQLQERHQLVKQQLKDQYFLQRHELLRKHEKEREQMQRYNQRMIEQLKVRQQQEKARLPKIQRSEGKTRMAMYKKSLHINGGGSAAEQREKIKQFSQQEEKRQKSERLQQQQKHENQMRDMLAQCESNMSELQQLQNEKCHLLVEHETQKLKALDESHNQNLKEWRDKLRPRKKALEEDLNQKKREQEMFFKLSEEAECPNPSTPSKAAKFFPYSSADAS", "sequence of UniProt Q8R146 (whole entry, looked up)": "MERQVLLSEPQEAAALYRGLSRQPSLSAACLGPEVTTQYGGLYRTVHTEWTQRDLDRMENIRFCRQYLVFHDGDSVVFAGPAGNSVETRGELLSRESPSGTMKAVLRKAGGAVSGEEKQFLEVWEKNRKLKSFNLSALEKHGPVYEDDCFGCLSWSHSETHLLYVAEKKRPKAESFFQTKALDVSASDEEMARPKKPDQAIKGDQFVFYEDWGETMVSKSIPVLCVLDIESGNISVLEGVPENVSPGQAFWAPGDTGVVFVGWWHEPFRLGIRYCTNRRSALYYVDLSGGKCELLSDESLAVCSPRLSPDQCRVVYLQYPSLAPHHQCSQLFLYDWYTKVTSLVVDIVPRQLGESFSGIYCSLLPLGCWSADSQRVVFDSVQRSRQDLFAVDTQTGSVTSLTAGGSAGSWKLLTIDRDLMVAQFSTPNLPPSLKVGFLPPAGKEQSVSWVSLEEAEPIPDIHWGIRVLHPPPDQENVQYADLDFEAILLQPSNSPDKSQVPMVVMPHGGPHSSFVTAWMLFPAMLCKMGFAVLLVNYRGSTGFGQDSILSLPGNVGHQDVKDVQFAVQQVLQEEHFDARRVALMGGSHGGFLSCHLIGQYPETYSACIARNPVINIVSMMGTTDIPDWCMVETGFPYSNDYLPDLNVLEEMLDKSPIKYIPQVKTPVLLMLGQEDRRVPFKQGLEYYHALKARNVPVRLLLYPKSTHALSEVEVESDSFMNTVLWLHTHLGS", "sequence of UniProt P10619 (whole entry, looked up)": "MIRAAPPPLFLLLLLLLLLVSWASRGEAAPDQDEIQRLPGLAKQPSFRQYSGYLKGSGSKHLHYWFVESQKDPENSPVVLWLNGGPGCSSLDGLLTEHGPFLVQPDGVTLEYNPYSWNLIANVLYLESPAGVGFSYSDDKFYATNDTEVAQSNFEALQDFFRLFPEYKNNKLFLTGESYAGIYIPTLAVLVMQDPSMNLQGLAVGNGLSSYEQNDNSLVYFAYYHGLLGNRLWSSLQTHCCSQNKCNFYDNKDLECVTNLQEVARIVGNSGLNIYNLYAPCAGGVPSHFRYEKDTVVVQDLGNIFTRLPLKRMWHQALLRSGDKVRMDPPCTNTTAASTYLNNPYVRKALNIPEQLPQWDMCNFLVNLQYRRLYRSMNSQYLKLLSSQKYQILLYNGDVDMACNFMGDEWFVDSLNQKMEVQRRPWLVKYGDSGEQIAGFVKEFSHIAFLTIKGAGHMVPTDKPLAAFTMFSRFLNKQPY", "sequence of UniProt P54753 (whole entry, looked up)": "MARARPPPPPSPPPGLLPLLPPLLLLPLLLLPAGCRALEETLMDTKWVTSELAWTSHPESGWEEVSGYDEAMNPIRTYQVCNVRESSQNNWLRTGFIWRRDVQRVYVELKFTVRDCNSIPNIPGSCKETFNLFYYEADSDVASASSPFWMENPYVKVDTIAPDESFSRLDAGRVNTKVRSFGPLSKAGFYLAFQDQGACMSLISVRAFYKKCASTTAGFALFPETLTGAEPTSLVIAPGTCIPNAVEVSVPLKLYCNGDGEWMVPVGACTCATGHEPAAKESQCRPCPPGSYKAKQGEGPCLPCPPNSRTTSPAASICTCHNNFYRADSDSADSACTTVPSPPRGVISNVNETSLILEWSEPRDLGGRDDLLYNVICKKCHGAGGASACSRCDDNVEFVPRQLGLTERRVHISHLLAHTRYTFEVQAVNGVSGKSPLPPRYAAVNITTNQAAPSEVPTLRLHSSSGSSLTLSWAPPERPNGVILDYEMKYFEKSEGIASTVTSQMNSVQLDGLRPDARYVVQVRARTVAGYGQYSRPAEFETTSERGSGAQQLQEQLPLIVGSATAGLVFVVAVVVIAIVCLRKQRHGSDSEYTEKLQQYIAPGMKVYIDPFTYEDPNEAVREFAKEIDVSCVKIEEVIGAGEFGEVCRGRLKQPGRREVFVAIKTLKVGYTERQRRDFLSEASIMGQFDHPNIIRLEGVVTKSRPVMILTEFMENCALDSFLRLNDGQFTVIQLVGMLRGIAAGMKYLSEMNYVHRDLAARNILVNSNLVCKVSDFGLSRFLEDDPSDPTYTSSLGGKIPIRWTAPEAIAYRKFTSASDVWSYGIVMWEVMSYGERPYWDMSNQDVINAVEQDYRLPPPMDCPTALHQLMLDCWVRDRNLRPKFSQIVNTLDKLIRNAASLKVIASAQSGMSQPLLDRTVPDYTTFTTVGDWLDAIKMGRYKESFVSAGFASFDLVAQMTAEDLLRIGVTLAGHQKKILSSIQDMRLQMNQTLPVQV", "sequence of UniProt P09769 (whole entry, looked up)": "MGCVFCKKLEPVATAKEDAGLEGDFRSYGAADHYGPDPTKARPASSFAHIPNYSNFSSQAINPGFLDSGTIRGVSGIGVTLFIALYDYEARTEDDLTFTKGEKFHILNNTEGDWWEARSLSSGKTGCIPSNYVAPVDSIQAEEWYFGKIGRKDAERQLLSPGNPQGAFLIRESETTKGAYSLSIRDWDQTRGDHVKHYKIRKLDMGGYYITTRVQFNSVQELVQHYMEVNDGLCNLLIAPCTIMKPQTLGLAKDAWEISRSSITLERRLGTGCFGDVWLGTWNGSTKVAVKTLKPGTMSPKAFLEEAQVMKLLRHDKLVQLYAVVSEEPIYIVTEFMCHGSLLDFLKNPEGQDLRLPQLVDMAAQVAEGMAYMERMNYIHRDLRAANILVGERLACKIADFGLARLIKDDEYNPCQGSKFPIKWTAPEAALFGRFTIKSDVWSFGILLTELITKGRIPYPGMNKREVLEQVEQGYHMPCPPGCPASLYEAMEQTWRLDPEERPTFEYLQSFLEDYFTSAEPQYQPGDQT", "sequence of UniProt P0A988 (whole entry, unmodified, looked up)": "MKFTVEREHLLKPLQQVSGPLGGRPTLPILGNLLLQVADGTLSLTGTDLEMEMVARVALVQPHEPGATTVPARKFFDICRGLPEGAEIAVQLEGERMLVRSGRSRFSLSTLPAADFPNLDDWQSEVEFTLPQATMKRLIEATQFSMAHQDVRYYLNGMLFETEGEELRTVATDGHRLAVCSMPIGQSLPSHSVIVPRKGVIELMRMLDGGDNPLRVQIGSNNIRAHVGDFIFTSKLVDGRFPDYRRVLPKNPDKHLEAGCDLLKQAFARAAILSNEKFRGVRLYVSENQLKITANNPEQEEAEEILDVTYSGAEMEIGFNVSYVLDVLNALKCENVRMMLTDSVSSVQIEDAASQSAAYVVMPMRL", "sequence of UniProt Q9BQB6 (whole entry, looked up)": "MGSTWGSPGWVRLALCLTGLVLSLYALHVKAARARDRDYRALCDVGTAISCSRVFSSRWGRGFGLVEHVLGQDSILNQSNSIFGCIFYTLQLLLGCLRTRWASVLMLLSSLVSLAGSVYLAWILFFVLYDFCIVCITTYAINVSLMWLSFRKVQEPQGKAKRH"}
{"SMILES": "[CH3][Ti+2][O]C(=O)c1ccc([S][Au][PH](c2ccccc2)(c2ccccc2)c2ccccc2)cc1.c1cc[cH-]c1.c1cc[cH-]c1", "target": "PRKCD (Homo sapiens, UniProt Q05655)", "test": "kinase activity", "conditions": "1 µM, together with: ATP 10 µM", "quantity": "remaining activity", "value": "100%"}
{"SMILES": "CC(C)OC(=O)[C@H](C)NP(=S)(Oc1ccccc1)c1ccccc1 (some centres unmarked)", "target": "CTSA (Homo sapiens, UniProt P10619)", "test": "substrate, LC-MS/MS", "conditions": "5 µM, pH 7.4, 37 °C", "quantity": "degradation rate constant", "value": "0.182 h⁻¹"}
{"SMILES": "F[B-](F)(F)c1ccc(/N=N/c2ccccc2)cc1.[K+]", "target": "Chymotrypsinogen A (Bos taurus, UniProt P00766)", "test": "enzyme activity, inhibitor", "conditions": "together with: Suc-AAPF-AMC", "how to read": "relative to: Ki cis over Ki trans", "quantity": "switching factor", "value": "1.9 ± 0.3"}
{"SMILES": "O=C1NC(=O)c2c1c1cc(F)c[n+]3c1c1c2c2cc(O)ccc2[n]1[Ru-4]312([N]=C=S)[S+]3CC[S+]1CC[S+]2CC3 (centres unmarked)", "target": "EPHB3 (Homo sapiens, UniProt P54753)", "test": "enzyme activity", "conditions": "100 nM, human enzyme, together with: 10 µM ATP", "how to read": "relative to: untreated", "quantity": "remaining activity", "value": "117%"}
{"SMILES": "C=CC(=O)NC[C@H](NC(=O)[C@H](CC1CCCCC1)NC(=O)[C@H](CCC(N)=O)NC(C)=O)C(=O)N[C@@H](CC(C)C)C(=O)N[C@@H](Cc1ccccc1)C(=O)O", "target": "Beta sliding clamp (Escherichia coli, UniProt P0A988, H175G)", "test": "isothermal titration calorimetry", "conditions": "25 °C", "quantity": "ΔH", "value": "-11.6 kcal/mol"}
{"SMILES": "C#CCCCCOc1ccc2c(c1)CCCN2C(=O)CCl", "target": "VKORC1 (Homo sapiens, UniProt Q9BQB6)", "test": "mass spectrometry profiling", "test system": "H460 cell lysate", "conditions": "100 µM over 10 µM, UniProt Q9BQB6", "how to read": "relative to: high over low concentration", "quantity": "reactivity ratio", "value": 1.55}
{"SMILES": "COCC1CCCCN1C(=O)n1cc(C(O)(c2ccccc2)c2ccccc2)nn1 (centres unmarked)", "target": "Acylamino-acid-releasing enzyme (Apeh, Mus musculus, UniProt Q8R146)", "test": "probe labelling, inhibitor, competitive ABPP-SILAC", "test system": "mouse T cells", "conditions": "concentration not given, 4 h, protein level", "how to read": "relative to: treated over DMSO cells, lower = stronger inhibition", "quantity": "SILAC activity ratio", "value": 1.42}
{"SMILES": "CS(C)(=O)=Nc1ccc(-c2ccc(-c3nc4cc(O[C@@H]5CO[C@H]6[C@@H]5OC[C@H]6O)[nH]c4cc3F)cc2)cc1", "target": "STK10 (Homo sapiens, UniProt O94804)", "test": "enzyme activity, inhibitor", "conditions": "10 µM", "quantity": "inhibition", "value": "-16%"}
{"SMILES": "COC(=O)[C@@H](NC(=O)c1nn(Cc2ccc(F)cc2)c2cc(OCCCCNC(=N)N)ccc12)C(C)(C)C", "target": "CNR1 (Homo sapiens, UniProt P21554)", "test": "GTPase", "how to read": "relative to: FUB", "quantity": "Gi GTP turnover median", "value": "108%"}
{"SMILES": "CN(C)[C@H]1C[C@@]23CC[C@@]4(O2)C(=CC[C@]2(C)[C@@H](c5ccc6ccncc6c5)CC[C@H]24)C=C3[C@@H](O)[C@@H]1O", "target": "MAP4K3 (Homo sapiens, UniProt Q8IVH8)", "test": "ATP probe labelling, inhibitor, KiNativ profiling", "conditions": "0.1 µM", "quantity": "inhibition", "value": "-5.3%"}
{"SMILES": "CC(C)[C@H]1NC(=O)C[C@H]2/C=C/CCSSC[C@@H](NC1=O)C(=O)N[C@H](Cc1cccc3ccccc13)C(=O)NCC(=O)O2", "target": "FGR (Homo sapiens, UniProt P09769)", "test": "enzyme activity, inhibitor", "conditions": "10 µM", "quantity": "inhibition", "value": "-2.8%"}
